{"data": "Results of several laboratories", "note": "Every numbered part comes from another study and shows a few of its results, in no order. Substitutions count along the parent as printed."}
{"data": "Study 1", "target": "ABI1, truncated, D143A, DHFR fusion (Arabidopsis thaliana)", "method": "DHFR PCA, deep sequencing", "matrix": "yeast", "setting": "methotrexate growth selection, single substitutions", "together with": "(+)-ABA 710 µM", "relative to": "wild-type fitted maximum", "direction": "higher = stronger binding", "starting sequence": "PYL1, truncated, DHFR fusion (Arabidopsis thaliana); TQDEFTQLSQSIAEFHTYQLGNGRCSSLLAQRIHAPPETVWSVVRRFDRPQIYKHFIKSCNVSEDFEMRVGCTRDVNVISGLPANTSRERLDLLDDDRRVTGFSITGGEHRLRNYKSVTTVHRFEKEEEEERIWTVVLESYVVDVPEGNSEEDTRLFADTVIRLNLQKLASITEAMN; partner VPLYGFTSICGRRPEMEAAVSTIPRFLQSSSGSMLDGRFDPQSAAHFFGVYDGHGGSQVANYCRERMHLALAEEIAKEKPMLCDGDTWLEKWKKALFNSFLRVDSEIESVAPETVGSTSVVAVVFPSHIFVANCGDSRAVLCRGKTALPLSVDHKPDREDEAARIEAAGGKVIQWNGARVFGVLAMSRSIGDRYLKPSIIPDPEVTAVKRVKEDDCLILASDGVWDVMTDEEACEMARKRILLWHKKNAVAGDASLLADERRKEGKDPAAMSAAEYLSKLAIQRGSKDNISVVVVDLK"}
{"Variant": "K58S", "relative binding score": "99.4%"}
{"Variant": "V44R", "relative binding score": "67%"}
{"Variant": "Q2S", "relative binding score": "106%"}
{"Variant": "A13T", "relative binding score": "95.4%"}
{"Variant": "E147K", "relative binding score": "96.8%"}
{"Variant": "D144P", "relative binding score": "82.2%"}
{"Variant": "Q10V", "relative binding score": "105%"}
{"Variant": "H34L", "relative binding score": "98.8%"}
{"data": "Study 2", "target": "CCND1, cyclin fold, Cln2 fusion (human)", "method": "yeast growth competition, sequencing", "matrix": "yeast", "setting": "strong parent motif", "relative to": "not given", "direction": "higher = stronger binding", "starting sequence": "PKN2 docking peptide (human); VSAVQKLDFSDTM; partner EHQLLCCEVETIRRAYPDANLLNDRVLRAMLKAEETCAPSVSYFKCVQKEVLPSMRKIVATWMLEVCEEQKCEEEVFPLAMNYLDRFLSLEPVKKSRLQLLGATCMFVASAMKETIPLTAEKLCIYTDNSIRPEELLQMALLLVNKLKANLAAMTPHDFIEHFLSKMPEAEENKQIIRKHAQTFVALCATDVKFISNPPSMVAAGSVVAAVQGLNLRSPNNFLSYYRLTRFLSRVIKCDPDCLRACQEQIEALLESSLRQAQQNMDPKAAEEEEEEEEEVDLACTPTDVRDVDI"}
{"Variant": "VSAVQKLDQSDTM [F9Q]", "normalised enrichment score": -0.00131}
{"Variant": "VSAHQKLDFSDTM [V4H]", "normalised enrichment score": 0.814}
{"Variant": "VPAVQKLDFSDTM [S2P]", "normalised enrichment score": 1.62}
{"Variant": "VQAVQKLDFSDTM [S2Q]", "normalised enrichment score": 2.12}
{"Variant": "VSAVQKLWFSDTM [D8W]", "normalised enrichment score": 0.52}
{"Variant": "VVAVQKLDFSDTM [S2V]", "normalised enrichment score": 0.875}
{"Variant": "VSEVQKLDFSDTM [A3E]", "normalised enrichment score": 0.379}
{"Variant": "VSQVQKLDFSDTM [A3Q]", "normalised enrichment score": 0.798}
{"Variant": "VLAVQKLDFSDTM [S2L]", "normalised enrichment score": 1.09}
{"Variant": "VSAVQVLDFSDTM [K6V]", "normalised enrichment score": 1.48}
{"Variant": "VSFVQKLDFSDTM [A3F]", "normalised enrichment score": 0.359}
{"Variant": "VGAVQKLDFSDTM [S2G]", "normalised enrichment score": 1.44}
{"Variant": "VDAVQKLDFSDTM [S2D]", "normalised enrichment score": 0.765}
{"Variant": "VRAVQKLDFSDTM [S2R]", "normalised enrichment score": 2.51}
{"data": "Study 3", "target": "Interferon regulatory factor 5, full length, phosphomimetic (IRF5, Homo sapiens, UniProt Q13568-2, residues 1-514, S451D/S453D/S456D/S462D)", "method": "protein-binding microarray", "molecule type": "double-stranded DNA, one strand shown", "matrix": "in vitro", "tested at": "940 nM top", "setting": "60-bp whole probe", "together with": "salmon DNA 0.4 mg/ml", "relative to": "random background probes", "direction": "higher = stronger binding", "all sequences stand within": "GCCTAGCAC … GTCTTGATTCGCTTGACGCTGCTG"}
{"Oligonucleotide": "GACGAACTGAGTATGGAGACGTGCTAG", "fitted relative affinity": "-0.541 z-score"}
{"Oligonucleotide": "TCACTTTTATTTTTTTTACTGTGCTAG", "fitted relative affinity": "2.06 z-score"}
{"Oligonucleotide": "GACGATTTCGGGTTTTGAGACGTGCTA", "fitted relative affinity": "0.471 z-score"}
{"Oligonucleotide": "TTAGGTTTCGGAATCGGTTAGTGCTAG", "fitted relative affinity": "9.01 z-score"}
{"Oligonucleotide": "CCAGAGTCCTGTTTGATAATGTGCTAG", "fitted relative affinity": "-0.189 z-score"}
{"Oligonucleotide": "TTAGGTATCGACACTGTGTTAGTGCTA", "fitted relative affinity": "5.07 z-score"}
{"Oligonucleotide": "GACGGTATCGGAACTGGGGACGTGCTA", "fitted relative affinity": "3.48 z-score"}
{"Oligonucleotide": "TTAGGTTCCCTTGTCCTTTAGTGCTAG", "fitted relative affinity": "0.349 z-score"}
{"Oligonucleotide": "TTAGGCCTCCTTTTCCTTTAGTGCTAG", "fitted relative affinity": "0.297 z-score"}
{"Oligonucleotide": "ATAGATATCGGGTTTCGATTAGTGCTA", "fitted relative affinity": "5.05 z-score"}
{"Oligonucleotide": "TTAGGTTTCGTCTTTCGGTTAGTGCTA", "fitted relative affinity": "8 z-score"}
{"Oligonucleotide": "GACGGTCACCTTCTCCTGACGTGCTAG", "fitted relative affinity": "0.137 z-score"}
{"Oligonucleotide": "GACGGTTCCGCTTTCGGGACGTGCTAG", "fitted relative affinity": "1.83 z-score"}
{"Oligonucleotide": "TTAGGTCTCGGTTCCGGTTAGTGCTAG", "fitted relative affinity": "5.68 z-score"}
{"Oligonucleotide": "CTTTCACCTCTCGGCCTGATGTGCTAG", "fitted relative affinity": "1.59 z-score"}
{"Oligonucleotide": "GACGGTTTCGGGTAGCGGGACGTGCTA", "fitted relative affinity": "9.22 z-score"}
{"Oligonucleotide": "TCATCAACCAGTTTTCTTACTGTGCTA", "fitted relative affinity": "0.596 z-score"}
{"Oligonucleotide": "TCATGCCTATTTTTCACACTGTGCTAG", "fitted relative affinity": "0.734 z-score"}
{"Oligonucleotide": "GATGGACTGGACACTGGGGACGTGCTA", "fitted relative affinity": "-0.41 z-score"}
{"Oligonucleotide": "TCATGTTTCTACTGTCTGACTGTGCTA", "fitted relative affinity": "0.883 z-score"}
{"data": "Study 4", "target": "Histone acetyltransferase KAT6A, both winged helices, GST fusion (KAT6A, Homo sapiens, UniProt Q92794, residues 1-181)", "method": "protein binding microarray", "molecule type": "double-stranded DNA, one strand shown", "matrix": "in vitro", "tested at": "not given", "setting": "8-mer, flanks averaged, mean of 2 arrays, mostly near background", "relative to": "not given", "direction": "higher = stronger binding", "Target sequence (chain)": "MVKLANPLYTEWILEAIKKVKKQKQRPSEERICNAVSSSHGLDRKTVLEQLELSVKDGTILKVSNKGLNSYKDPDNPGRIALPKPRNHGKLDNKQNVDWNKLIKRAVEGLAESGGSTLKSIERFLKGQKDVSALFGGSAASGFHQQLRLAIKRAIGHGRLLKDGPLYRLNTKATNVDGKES"}
{"Oligonucleotide": "ACACACGG", "E-score": 0.221}
{"Oligonucleotide": "CCTTCCAG", "E-score": -0.211}
{"Oligonucleotide": "CCCTCCCA", "E-score": -0.0923}
{"Oligonucleotide": "AGAGCGAA", "E-score": -0.0849}
{"Oligonucleotide": "GTACGAAA", "E-score": -0.0574}
{"Oligonucleotide": "TGACGGAA", "E-score": 0.288}
{"Oligonucleotide": "AAAAGACG", "E-score": -0.00258}
{"Oligonucleotide": "AACCGGTG", "E-score": 0.178}
{"Oligonucleotide": "CTTCCTCA", "E-score": -0.127}
{"Oligonucleotide": "GAACGGGC", "E-score": 0.163}
{"Oligonucleotide": "AGTCTCGA", "E-score": -0.115}
{"Oligonucleotide": "AAGTTGCC", "E-score": 0.136}
{"Oligonucleotide": "AAGATCTC", "E-score": -0.0305}
{"data": "Study 5", "target": "Fragile X messenger ribonucleoprotein 1, C-terminal low-complexity region (Fmr1, Mus musculus, UniProt P35922)", "method": "RNA Bind-n-Seq", "molecule type": "RNA", "matrix": "in vitro", "tested at": "200 nM", "setting": "whole 134-nt RNA, ends assumed", "together with": "150 mM LiCl", "relative to": "input library", "direction": "higher = stronger binding", "library": "7-deaza-guanosine replaces G", "all sequences stand within": "GGGAGUUCUACAGUCCGACGAUC … UGGAAUUCUCGGGUGUCAAGG"}
{"Oligonucleotide": "UUUGGAGAAGGAACCCCACUCUCCAGCUGACCAGCCUGAACAACAGGCAGAAUCCACUUUGACAUCAGCUGAGACUAGGGGAAGCAAGAA", "log2 enrichment": -0.504}
{"Oligonucleotide": "AGUGGGUUUGUUGAAGCAGUUGCUGGUGCAACAGCUAGGUUUGACUGAGAAGAGCGUUCAGGAAGACUGGCAACAUUUCCCAAGAUACAG", "log2 enrichment": -3.22}
{"Oligonucleotide": "UUGGCGCAUGCGCCUAAAGCUGACGGGUUUGAAAUGGCUUCGAUGUUAGCCGGGACCCGACUCAGGUGAAGGUCUGGUCCCCGUAGUUGG", "log2 enrichment": -1.37}
{"Oligonucleotide": "CUGUGCUACACAUCGUAUGUACCGAAUCGGGGUUUUUUGGGGUUUUUUGGGGUUUUUUGGGGAAAGUAUUAUGUUACGCCGUUCGGAUCU", "log2 enrichment": 1.59}
{"Oligonucleotide": "GCAGGAAGUAAAAACAAAUGGAAAUGCUUAGGAUAGUGGCAGGGGUGGGGGUUGCUAAGGAAAGGGUGGGAUGGGAGUGGGUAAAGAGUU", "log2 enrichment": 1.37}
{"data": "Study 6", "target": "RNA binding protein fox-1 homolog 2, RRM domain, GST-SBP tag (RBFOX2, Homo sapiens, UniProt O43251-10, residues 100-194)", "method": "RNA Bind-n-Seq", "molecule type": "RNA", "matrix": "in vitro", "tested at": "365 nM", "setting": "natural RNA segment, single round, ends assumed", "relative to": "no-protein control", "direction": "higher = stronger binding", "all sequences stand within": "GGGAGUUCUACAGUCCGACGAUC … UGGAAUUCUCGGGUGCCAA", "Residues (chain)": "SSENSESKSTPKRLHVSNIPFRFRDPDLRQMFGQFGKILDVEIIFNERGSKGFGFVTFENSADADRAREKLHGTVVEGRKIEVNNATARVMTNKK"}
{"Oligonucleotide": "CCAGCUCCCUGCUCACUCUUCUCUCAGCCAAAGCCUCCAAAGGGACUAGAGAGAAGCCUCCUGCUCCCCUCGCCUGCACACCCCCUUUCAGAGGGCCACUGGGUUAGGAC", "RBNS enrichment (R)": 0.579}
{"Oligonucleotide": "GGUUUCUUUUUUGGAGUCCUGAGUUCAAAGGGGACAGAACUAAGGGCAGGAGAAGAGAAUGGAUGUGUCUUCUCUCCCAUCUUCCCCUCAUCAUCGACCGAGGAGCACAA", "RBNS enrichment (R)": 8.78}
{"Oligonucleotide": "CGGCCAGGGGCCAGCCCUCCAGCCGGGCCCCGACAUAGACUUGAAAGACUGCAACAGAAACUCCCCAGCCUAGCACUCCAGAGUCCAAGGGAAGCCACCUUCCAAGAACU", "RBNS enrichment (R)": 0.148}
{"Oligonucleotide": "ACUCUUCCGUUUCUUCUAACCUGCUGUUUCUGUUCUGACAGCGGCUCCUUUGUAAGCUUCAGGCCACACCCACCCCCUCAGUCCAUAUCUGCACUUGCUCAUAGGCCGGU", "RBNS enrichment (R)": 0.39}
{"Oligonucleotide": "AGGACAGUCUAUCUUAAAUUUCAUAUGAGAACUCCUUCCUCCCUUUGAAGAUCUGUCCAUAUUCAGGAAUCUGAGAGUGUAAAAAAGGUACCAAUCAUUGAUUUUUUUUU", "RBNS enrichment (R)": 1.17}
{"Oligonucleotide": "GGGUGAGGACACUAACAGUGUAACUGGUGACCACGUGAACAGUUCCAUGAAUUAAAUGUUUCCUGUGUUAAUCAGUAUUCUUAAAUUAAAAGAAAAUGUUUAUAAUGGAA", "RBNS enrichment (R)": 0.522}
{"Oligonucleotide": "UUUGGCUGUGCCUGGGUAGGGGCACUGUGCCUGCUUCUGAUUUUGAAAGAAGCAUCCUGGAAACCAUGAAGUAUUCUACUAUGAAGGGCGCAUCUGCCCUGGUCAGCUGU", "RBNS enrichment (R)": 0.324}
{"Oligonucleotide": "UUUAAACUCCCCCCUCCCUUUUUGGUAGCUGUUUUCUCCGUCCUCUCUCCACCUGCCCUCUUAUCUAGGAGCUGUUUGUAAGCACGAUUUUUUUAACAGGUUAUAUUGUA", "RBNS enrichment (R)": 1.44}
{"data": "Mixed results", "method": "cross-linking MS", "matrix": "cell fractions"}
{"Molecule": "SRP14 (Homo sapiens, UniProt P37108)", "partner": "SRP9 (Homo sapiens, UniProt P49458)", "together with": "DMTMM", "cross-linked residues": "K95 to D54"}
{"Molecule": "RFC1 (Homo sapiens, UniProt P35251)", "partner": "RFC3 (Homo sapiens, UniProt P40938)", "together with": "DSSO", "cross-linked residues": "S1083 to K66"}
